Experimental data gathered from unrelated publications.
Each line is one published result; not all experiments were run side by side. Numbers after ± are the reported error.
UniProt Q16832, sequence (whole entry, looked up): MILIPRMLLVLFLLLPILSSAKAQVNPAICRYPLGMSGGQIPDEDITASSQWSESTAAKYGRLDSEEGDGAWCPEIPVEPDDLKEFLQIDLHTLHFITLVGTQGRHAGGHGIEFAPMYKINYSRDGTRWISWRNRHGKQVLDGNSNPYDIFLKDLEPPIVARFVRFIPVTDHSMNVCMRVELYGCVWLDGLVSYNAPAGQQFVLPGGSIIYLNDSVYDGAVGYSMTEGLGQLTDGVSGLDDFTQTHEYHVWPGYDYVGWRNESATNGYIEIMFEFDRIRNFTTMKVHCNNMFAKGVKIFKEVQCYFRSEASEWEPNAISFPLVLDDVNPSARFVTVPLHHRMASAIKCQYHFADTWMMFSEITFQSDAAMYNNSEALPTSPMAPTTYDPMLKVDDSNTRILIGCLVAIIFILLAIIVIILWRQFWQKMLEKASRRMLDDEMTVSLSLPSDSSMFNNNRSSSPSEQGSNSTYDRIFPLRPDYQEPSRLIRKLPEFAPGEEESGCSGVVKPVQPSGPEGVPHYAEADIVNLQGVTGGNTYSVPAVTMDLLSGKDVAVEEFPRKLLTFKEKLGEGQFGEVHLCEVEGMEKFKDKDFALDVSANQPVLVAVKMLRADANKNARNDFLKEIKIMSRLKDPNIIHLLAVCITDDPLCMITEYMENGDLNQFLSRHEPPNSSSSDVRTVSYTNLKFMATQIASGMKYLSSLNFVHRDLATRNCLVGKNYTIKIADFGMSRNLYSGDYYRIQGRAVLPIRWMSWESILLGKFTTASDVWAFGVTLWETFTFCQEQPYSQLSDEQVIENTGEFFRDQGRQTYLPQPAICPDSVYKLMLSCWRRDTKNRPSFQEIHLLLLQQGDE
UniProt P25100, sequence (whole entry, looked up): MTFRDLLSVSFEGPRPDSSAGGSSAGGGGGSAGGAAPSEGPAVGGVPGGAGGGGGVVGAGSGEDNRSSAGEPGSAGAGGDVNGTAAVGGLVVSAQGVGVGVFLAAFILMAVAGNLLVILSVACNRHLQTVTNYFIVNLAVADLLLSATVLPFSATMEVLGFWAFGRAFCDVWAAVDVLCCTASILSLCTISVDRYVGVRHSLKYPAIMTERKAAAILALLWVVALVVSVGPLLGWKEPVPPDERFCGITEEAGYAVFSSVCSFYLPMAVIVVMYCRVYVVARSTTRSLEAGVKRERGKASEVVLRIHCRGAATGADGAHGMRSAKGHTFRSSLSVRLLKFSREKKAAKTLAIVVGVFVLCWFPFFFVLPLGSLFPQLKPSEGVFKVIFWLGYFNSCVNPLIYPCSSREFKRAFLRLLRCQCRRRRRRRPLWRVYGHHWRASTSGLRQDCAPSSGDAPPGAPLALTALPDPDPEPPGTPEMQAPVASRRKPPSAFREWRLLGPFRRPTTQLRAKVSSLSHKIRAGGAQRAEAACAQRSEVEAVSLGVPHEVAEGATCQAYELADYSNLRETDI
UniProt O15111, sequence (whole entry, looked up): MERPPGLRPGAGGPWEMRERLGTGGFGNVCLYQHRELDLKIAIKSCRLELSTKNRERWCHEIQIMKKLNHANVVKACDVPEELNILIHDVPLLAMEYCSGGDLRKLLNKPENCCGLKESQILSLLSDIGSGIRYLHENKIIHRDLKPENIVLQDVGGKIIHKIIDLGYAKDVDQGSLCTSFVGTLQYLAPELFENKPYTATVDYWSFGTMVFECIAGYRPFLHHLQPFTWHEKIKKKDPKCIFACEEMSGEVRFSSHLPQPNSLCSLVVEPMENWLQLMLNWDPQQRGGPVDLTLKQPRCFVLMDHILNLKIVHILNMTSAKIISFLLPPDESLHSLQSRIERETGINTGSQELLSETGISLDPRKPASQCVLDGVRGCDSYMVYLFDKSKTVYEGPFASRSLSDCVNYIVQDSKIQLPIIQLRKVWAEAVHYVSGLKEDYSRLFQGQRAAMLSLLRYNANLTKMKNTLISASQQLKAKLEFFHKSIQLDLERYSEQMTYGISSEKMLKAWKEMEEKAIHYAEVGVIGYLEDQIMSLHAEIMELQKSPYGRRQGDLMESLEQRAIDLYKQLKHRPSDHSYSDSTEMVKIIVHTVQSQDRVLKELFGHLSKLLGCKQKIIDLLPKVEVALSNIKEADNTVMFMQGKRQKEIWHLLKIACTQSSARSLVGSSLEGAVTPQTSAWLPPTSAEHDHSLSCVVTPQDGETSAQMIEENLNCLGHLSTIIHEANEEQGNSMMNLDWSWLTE
UniProt P27448, sequence (whole entry, looked up): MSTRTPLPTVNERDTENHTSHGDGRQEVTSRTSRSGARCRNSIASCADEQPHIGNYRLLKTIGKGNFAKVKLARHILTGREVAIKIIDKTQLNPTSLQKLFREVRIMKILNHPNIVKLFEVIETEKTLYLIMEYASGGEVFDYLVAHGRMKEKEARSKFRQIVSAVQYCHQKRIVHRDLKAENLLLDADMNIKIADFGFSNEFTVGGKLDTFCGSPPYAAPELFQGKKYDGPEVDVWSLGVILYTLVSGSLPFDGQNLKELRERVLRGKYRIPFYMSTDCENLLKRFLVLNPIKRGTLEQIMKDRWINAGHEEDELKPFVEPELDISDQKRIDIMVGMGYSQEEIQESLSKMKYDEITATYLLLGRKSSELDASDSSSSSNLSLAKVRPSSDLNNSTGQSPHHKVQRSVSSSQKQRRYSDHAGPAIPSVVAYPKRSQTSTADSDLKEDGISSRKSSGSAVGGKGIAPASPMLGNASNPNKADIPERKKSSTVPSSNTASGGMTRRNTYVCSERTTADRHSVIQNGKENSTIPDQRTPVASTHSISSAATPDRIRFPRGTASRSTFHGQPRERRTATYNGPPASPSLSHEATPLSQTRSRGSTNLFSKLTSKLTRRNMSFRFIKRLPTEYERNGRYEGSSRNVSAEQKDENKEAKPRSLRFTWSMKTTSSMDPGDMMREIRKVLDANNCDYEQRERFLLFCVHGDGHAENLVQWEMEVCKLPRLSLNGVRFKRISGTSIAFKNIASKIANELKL
UniProt Q8IVH8, sequence (whole entry, looked up): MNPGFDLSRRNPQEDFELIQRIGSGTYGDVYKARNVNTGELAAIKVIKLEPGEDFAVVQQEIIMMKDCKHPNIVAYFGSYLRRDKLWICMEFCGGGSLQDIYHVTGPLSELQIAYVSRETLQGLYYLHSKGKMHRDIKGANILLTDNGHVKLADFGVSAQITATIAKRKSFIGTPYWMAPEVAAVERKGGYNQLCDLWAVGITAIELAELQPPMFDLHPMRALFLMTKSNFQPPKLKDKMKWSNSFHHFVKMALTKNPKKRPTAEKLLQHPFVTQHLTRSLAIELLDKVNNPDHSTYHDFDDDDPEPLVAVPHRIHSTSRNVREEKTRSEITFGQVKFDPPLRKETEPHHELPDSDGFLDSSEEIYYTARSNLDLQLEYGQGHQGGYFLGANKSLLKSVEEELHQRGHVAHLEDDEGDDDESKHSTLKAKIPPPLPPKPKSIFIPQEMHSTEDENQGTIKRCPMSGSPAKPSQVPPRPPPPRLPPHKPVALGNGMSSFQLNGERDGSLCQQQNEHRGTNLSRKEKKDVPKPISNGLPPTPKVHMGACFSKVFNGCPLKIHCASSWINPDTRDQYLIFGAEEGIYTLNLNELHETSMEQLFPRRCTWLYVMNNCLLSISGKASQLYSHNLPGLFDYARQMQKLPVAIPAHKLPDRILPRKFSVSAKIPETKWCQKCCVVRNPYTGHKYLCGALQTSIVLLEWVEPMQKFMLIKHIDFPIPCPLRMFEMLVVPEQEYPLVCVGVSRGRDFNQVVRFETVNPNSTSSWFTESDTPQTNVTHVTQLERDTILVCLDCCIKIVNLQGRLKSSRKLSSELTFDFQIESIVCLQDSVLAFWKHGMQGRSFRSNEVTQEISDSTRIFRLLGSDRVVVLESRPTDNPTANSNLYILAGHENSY
UniProt O13828, sequence (whole entry, looked up): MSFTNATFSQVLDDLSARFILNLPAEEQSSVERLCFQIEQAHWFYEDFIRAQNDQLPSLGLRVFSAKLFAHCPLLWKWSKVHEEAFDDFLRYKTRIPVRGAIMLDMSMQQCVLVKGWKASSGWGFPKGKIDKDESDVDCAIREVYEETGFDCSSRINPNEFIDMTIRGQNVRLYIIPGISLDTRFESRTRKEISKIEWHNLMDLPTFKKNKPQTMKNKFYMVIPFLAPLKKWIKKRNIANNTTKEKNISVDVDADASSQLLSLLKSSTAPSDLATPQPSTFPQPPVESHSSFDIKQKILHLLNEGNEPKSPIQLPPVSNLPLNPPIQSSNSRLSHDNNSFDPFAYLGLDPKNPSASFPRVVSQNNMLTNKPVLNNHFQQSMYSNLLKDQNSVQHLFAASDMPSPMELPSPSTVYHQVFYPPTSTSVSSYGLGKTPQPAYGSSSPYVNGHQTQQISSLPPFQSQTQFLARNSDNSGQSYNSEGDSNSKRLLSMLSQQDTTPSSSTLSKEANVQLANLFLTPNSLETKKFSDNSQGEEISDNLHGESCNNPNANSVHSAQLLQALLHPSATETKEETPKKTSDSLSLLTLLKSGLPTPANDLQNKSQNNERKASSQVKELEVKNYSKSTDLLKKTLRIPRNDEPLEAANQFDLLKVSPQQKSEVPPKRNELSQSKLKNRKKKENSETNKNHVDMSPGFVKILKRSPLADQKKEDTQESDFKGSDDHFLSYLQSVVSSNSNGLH
UniProt P32246, sequence (whole entry, looked up): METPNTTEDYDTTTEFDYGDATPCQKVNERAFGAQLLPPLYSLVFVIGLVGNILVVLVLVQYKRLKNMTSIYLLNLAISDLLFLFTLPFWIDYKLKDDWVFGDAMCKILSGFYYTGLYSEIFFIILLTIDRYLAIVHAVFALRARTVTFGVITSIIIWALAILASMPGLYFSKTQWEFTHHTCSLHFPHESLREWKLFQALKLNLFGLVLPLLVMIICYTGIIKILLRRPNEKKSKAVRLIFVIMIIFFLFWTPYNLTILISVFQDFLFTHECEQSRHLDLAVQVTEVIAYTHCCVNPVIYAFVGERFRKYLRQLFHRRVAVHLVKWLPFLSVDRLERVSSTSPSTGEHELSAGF

The inhibition of `COc1ccc(F)cc1S(=O)(=O)Nc1cnc2c(c1)C(=O)NCCO2` is reported as 3% (Alpha-1D adrenergic receptor (ADRA1D, Homo sapiens, UniProt P25100); ligand displacement, radioligand; 10 µM).
`C[C@H](NCc1ccc(-c2ccc(C(F)(F)F)cc2)cc1)C(N)=O` has an inhibition of 2% (MAP/microtubule affinity-regulating kinase 3 (MARK3, Homo sapiens, UniProt P27448); cell-free assay, competition with immobilised ligand; 1 µM).
With `NCC1CCN(Cc2cccc(F)c2)CC1` the inhibition was 40.7% (Acetylcholinesterase (ache, Electrophorus electricus, UniProt O42275); enzyme activity, inhibitor, Ellman; 20 µM).
`OB(O)c1cnn(-c2cc(Cl)ncn2)c1` has an inhibition of 93% (Beta-lactamase (ampC, Escherichia coli K-12, UniProt P00811); enzyme activity, CENTA hydrolysis; 1 µM).
The inhibition of `CN(C)[C@H]1C[C@@]23CC[C@@]4(O2)C(=CC[C@]2(C)[C@@H](c5ccc6ccncc6c5)CC[C@H]24)C=C3[C@@H](O)[C@@H]1O` is reported as 11.5% (Inhibitor of nuclear factor kappa-B kinase subunit alpha (CHUK, Homo sapiens, UniProt O15111); ATP probe labelling, inhibitor, KiNativ profiling; 1 µM).
For `O=C(Nc1cccs1)c1cccnc1`, inhibition read “no inhibition” (NMNAT1 human; enzyme activity, coupled alcohol dehydrogenase counter-screen; concentration not given, added: 50 µM NMN).
`Cc1ccc2c(n1)c(-c1cccc(S(C)(=O)=O)c1)c(C)n2C/C(F)=C/CN` has an inhibition of -2% (C-C chemokine receptor type 1 (CCR1, Homo sapiens, UniProt P32246); ligand displacement, radioligand; 10 µM).
For `CS(C)(=O)=Nc1ccc(-c2ccc(-c3nc4cc(O[C@@H]5CO[C@H]6[C@@H]5OC[C@H]6O)[nH]c4cc3F)cc2)cc1`, the inhibition was 29% (Vasoactive intestinal polypeptide receptor 1 (VIPR1, Homo sapiens, UniProt P32241); calcium signal, antagonist; 10 µM).
The inhibition of `CC(C)[C@H]1NC(=O)C[C@H]2/C=C/CCSSC[C@@H](NC1=O)C(=O)N[C@H](Cc1cccc3ccccc13)C(=O)NCC(=O)O2` is reported as -0.0215% (RAF1 human; 10 µM).
`C[n+]1cn([C@@H]2O[C@H](COP(=O)([O-])CP(=O)(O)O)[C@@H](O)[C@H]2O)c2nc(N)nc(O)c21` has an inhibition of 21.5 ± 9.85% (mRNA decapping complex subunit 2, with Dcp1 (dcp2, Schizosaccharomyces pombe, UniProt O13828); 200 µM, 0.5 h).
For `C=CC(=O)Nc1cc(-c2nn(C3CCC(N4CCN(C(C)=O)CC4)CC3)c3ncnc(N)c23)ccc1Oc1ccccc1` (stereo not drawn), the inhibition was 16.4% (Mitogen-activated protein kinase kinase kinase kinase 3 (MAP4K3, Homo sapiens, UniProt Q8IVH8); inhibitor, KiNativ profiling; biochemical; 2 µM).
With `O=C(O)c1ccccc1/C=N/Nc1nc(-c2ccccc2Cl)cs1` the inhibition was -11.6% (Discoidin domain-containing receptor 2 (DDR2, Homo sapiens, UniProt Q16832); enzyme activity, inhibitor; 1 µM).

Excerpt of the above:
With `O=C(O)c1ccccc1/C=N/Nc1nc(-c2ccccc2Cl)cs1` the inhibition was -11.6% (Discoidin domain-containing receptor 2 (DDR2, Homo sapiens, UniProt Q16832); enzyme activity, inhibitor; 1 µM).
